Assay results pooled from the literature.
Parts stem from different laboratories: compare values within a part only. pEC50: −log10 of the molar value.
UniProt P10721, sequence (whole entry, unmodified, looked up): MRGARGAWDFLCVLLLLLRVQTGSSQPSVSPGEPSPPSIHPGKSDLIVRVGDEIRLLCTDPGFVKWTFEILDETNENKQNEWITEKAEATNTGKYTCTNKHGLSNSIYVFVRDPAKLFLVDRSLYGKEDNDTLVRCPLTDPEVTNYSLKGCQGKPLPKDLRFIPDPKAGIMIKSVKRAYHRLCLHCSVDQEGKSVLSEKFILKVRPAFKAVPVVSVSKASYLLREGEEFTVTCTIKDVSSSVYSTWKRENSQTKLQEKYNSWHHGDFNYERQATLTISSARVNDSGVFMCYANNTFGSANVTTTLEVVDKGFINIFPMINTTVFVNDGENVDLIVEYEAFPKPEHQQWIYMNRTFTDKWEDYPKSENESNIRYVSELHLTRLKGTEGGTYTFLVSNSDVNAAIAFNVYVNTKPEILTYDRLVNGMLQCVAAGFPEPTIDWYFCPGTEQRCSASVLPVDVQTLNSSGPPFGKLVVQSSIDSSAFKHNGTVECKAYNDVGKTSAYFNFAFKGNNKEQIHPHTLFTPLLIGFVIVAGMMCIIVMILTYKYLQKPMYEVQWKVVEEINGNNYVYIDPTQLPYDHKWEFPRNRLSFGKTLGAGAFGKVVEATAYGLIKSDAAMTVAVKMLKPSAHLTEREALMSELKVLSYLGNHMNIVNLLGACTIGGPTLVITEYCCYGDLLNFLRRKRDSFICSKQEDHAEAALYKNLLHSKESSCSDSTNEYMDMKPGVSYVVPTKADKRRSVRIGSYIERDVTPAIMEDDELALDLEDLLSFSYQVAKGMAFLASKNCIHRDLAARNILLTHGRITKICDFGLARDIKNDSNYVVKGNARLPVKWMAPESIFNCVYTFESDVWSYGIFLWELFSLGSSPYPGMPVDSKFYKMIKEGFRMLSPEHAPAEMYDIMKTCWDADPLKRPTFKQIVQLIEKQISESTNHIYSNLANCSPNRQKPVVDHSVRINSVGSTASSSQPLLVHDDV
UniProt Q2M2I8, sequence (whole entry, looked up): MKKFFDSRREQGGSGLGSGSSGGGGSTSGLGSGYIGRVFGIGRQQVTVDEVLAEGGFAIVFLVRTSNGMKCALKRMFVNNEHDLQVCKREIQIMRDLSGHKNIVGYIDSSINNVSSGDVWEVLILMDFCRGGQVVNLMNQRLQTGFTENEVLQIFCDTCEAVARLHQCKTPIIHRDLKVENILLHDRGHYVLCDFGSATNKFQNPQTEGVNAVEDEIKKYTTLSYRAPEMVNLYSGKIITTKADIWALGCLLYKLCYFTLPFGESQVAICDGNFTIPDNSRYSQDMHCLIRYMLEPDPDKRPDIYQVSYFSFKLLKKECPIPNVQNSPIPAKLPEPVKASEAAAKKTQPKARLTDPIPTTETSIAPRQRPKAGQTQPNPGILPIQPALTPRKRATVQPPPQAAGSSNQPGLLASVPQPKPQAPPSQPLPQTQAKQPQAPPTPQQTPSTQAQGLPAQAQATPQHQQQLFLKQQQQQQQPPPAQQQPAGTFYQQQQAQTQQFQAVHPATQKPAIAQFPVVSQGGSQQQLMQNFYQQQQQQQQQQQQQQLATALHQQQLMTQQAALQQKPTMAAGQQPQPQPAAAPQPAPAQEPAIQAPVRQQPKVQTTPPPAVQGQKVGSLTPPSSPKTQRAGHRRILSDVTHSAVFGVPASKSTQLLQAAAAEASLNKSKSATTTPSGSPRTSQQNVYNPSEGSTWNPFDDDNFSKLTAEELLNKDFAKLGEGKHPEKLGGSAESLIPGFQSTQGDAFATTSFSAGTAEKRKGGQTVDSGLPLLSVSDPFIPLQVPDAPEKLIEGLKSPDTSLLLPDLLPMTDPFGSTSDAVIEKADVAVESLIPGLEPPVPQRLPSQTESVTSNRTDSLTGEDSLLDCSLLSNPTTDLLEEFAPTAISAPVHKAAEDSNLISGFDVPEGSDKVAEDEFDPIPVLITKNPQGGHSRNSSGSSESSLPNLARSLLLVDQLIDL
UniProt P11362, sequence (whole entry, looked up): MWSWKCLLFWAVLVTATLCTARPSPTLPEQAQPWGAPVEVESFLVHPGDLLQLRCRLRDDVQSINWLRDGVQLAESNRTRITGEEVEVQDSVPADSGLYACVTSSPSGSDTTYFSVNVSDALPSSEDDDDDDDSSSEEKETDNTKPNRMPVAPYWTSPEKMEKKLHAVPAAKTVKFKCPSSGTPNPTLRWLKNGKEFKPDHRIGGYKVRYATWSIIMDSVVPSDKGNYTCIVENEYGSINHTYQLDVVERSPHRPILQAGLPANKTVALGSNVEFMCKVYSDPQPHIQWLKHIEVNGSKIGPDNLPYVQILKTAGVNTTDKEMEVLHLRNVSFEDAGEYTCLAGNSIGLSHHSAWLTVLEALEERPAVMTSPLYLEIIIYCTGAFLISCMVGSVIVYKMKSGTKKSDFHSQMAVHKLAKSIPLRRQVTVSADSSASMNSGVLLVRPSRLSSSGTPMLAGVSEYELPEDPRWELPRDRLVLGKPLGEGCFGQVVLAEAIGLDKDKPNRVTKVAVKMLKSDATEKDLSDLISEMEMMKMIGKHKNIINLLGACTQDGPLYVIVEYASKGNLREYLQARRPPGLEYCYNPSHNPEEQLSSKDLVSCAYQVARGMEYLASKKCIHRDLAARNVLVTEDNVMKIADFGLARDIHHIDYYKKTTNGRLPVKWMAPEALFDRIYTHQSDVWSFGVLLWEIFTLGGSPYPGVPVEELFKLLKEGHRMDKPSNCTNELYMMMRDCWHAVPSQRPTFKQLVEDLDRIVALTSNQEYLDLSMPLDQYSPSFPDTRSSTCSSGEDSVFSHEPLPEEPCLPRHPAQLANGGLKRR
UniProt Q9Y243, sequence (whole entry, looked up): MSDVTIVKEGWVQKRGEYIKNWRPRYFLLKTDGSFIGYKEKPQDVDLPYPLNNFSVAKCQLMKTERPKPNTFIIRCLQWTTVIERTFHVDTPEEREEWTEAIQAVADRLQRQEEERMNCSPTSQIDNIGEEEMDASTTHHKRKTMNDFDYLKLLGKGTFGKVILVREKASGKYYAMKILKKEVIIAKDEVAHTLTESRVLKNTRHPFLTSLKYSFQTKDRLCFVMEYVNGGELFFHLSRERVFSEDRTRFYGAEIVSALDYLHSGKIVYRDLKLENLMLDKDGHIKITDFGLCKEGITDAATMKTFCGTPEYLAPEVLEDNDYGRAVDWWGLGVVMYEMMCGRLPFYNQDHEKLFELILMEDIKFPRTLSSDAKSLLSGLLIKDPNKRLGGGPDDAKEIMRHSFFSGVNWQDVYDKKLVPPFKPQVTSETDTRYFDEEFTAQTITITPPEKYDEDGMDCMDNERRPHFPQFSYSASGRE
UniProt Q7KZI7, sequence (whole entry, looked up): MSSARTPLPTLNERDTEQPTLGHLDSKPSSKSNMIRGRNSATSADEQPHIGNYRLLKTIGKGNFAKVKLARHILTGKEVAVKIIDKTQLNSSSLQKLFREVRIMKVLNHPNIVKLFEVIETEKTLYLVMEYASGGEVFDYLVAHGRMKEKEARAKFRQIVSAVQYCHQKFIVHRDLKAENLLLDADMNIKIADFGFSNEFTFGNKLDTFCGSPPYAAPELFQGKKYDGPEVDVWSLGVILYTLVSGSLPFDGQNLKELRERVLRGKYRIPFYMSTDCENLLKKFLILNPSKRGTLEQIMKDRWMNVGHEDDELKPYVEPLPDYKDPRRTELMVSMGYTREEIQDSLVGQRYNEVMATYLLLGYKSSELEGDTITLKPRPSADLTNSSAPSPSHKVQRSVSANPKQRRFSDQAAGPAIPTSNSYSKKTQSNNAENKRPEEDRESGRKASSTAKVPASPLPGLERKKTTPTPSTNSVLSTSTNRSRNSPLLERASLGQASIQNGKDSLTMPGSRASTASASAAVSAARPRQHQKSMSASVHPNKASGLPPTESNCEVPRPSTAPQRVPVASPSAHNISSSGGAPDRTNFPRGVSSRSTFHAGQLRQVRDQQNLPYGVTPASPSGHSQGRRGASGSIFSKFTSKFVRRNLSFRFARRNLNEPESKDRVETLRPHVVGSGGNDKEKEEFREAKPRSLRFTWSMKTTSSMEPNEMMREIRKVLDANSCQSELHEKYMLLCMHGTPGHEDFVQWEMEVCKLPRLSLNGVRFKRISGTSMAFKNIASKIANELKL

Sample 1
Species: mouse
Sample: microsomes or S9
Concentration: 2 µM
Time: 0.5 h
Quantity: remaining compound
COC[C@@H]1[C@H](NC(=O)CCN2CCCO2)[C@@H]2CCO[C@H]12: 69.5%
CCCN(CCC)C(=O)c1cccc(C(=O)NN(Cc2ccc(Br)cc2)C(=O)CN[C@H](C(=O)NCc2cccc(OC)c2)C(C)C)c1: 0%
O=C(CN1CCOCC1)N1CCC(c2nc(CCOCC3CCOCC3)no2)C1 (centres unmarked): > 100%
CC(NC(=O)Nc1ccc(F)cc1Br)c1cn[nH]c1 (centres unmarked): 87.3%
CCN1C(=O)C2(CC(=O)Nc3c2cnn3-c2nc3ccccc3s2)c2cccc(C)c21 (centres unmarked): 0.0317%
CC(C)COc1cc(=O)n2c(c1C(=O)NC1CCCCC1)CCCCC2: 4.6%
N#Cc1ccc2nc(N3CCc4c(ncn4-c4ccccc4)C3)ccc2c1: 4.83%
Cc1n[nH]c(-c2ccccc2)c1-c1nc2ccccc2n1Cc1ccccc1: 2.23%
O=C(COc1ncccn1)NCCNc1cc(-n2cccn2)ncn1: 18.9%
Brc1ccc2ccnc(N3CCCC3)c2c1: 0.162%
Clc1ccc(Cc2nc3c4cn[nH]c4ncn3n2)cc1: 11.7%

Sample 2
SMILES: c1ccc(N2CCN(Cc3nc4ccccc4[nH]3)CC2)nc1
Concentration: 1 µM
Quantity: remaining binding
NEK7 (Homo sapiens, UniProt Q8TDX7); binding, competition with immobilised ligand: 100%
TSSK1B (Homo sapiens, UniProt Q9BXA7); binding, competition with immobilised ligand: 100%
TNIK (Homo sapiens, UniProt Q9UKE5); binding, competition with immobilised ligand: 100%
CHEK2 (Homo sapiens, UniProt O96017); binding, competition with immobilised ligand: 100%
HASPIN (Homo sapiens, UniProt Q8TF76); cell-free assay, competition with immobilised ligand: 100%
EGFR (Homo sapiens, UniProt P00533, del746-750); cell-free assay, competition with immobilised ligand: 100%
KIT (Homo sapiens, UniProt P10721, L576P); binding, competition with immobilised ligand: 100%
FGFR1 (Homo sapiens, UniProt P11362); cell-free assay, competition with immobilised ligand: 100%
AAK1 (Homo sapiens, UniProt Q2M2I8); binding: 100%
PIM3 (Homo sapiens, UniProt Q86V86); binding, competition with immobilised ligand: 100%
CSNK1A1L (Homo sapiens, UniProt Q8N752); cell-free assay, competition with immobilised ligand: 100%
PIM1 (Homo sapiens, UniProt P11309); binding, competition with immobilised ligand: 90%
CLK3 (Homo sapiens, UniProt P49761); binding, competition with immobilised ligand: 100%
WNK1 (Homo sapiens, UniProt Q9H4A3); binding, competition with immobilised ligand: 100%
MARK4 (Homo sapiens, UniProt Q96L34); binding, competition with immobilised ligand: 100%
CDK13 (Homo sapiens, UniProt Q14004); binding, competition with immobilised ligand: 100%
ABL2 (Homo sapiens, UniProt P42684); binding, competition with immobilised ligand: 100%
ERN1 (Homo sapiens, UniProt O75460); cell-free assay, competition with immobilised ligand: 100%
SBK1 (Homo sapiens, UniProt Q52WX2); binding, competition with immobilised ligand: 100%
CDK19 (Homo sapiens, UniProt Q9BWU1); competition binding: 87%
CDC42BPB (Homo sapiens, UniProt Q9Y5S2); cell-free assay, competition with immobilised ligand: 100%
HCK (Homo sapiens, UniProt P08631); cell-free assay, competition with immobilised ligand: 100%
MARK2 (Homo sapiens, UniProt Q7KZI7); binding, competition with immobilised ligand: 100%
MAP3K7 (Homo sapiens, UniProt O43318); binding, competition with immobilised ligand: 52%

Sample 3
Target: Beta-1 adrenergic receptor (ADRB1, Homo sapiens, UniProt P08588)
UniProt P08588, sequence (whole entry, looked up): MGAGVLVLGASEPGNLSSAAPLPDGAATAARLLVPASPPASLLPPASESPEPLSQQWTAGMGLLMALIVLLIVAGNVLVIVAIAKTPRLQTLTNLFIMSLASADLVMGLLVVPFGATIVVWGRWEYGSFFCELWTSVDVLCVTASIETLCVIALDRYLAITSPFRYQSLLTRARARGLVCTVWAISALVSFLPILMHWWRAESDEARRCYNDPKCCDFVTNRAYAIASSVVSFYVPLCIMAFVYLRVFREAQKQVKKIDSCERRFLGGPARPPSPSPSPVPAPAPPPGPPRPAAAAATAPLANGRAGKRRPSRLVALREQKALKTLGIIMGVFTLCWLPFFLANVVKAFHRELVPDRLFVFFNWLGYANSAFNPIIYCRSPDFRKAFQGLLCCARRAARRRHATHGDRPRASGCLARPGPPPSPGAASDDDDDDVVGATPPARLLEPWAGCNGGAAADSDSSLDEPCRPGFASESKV
Mode: agonist
Quantity: pEC50
Oc1ccccc1N1CCN(c2ccc3ccccc3n2)CC1: ≤ 4.00
Cc1cc(F)ccc1-c1n[nH]c2ncc(-c3ccsc3)nc12: ≤ 4.00
Cn1cc(-c2cnc(Nc3cccc(C(F)(F)F)c3)c3c2CCO3)cn1: ≤ 4.00
C[C@H](O)c1onc(-c2ccccc2)c1C(=O)NC1CCOCC1: ≤ 4.00
O=[S+]([O-])(NCc1cccc2ccccc12)c1cc(Cl)c(Oc2cccc(N3CCNCC3)c2)s1: ≤ 4.00
O=C1OC2(c3ccc(O)cc3Oc3cc(O)ccc32)c2ccc(N=C=S)cc21: ≤ 4.00
O=c1oc2ccc(Cl)cc2cc1-c1nc2c(s1)CCc1ccccc1-2: 5.80
OC(COc1ccc(CN2CCC(F)CC2)cc1)CN1CCCCC1 (centres unmarked): ≤ 4.00
O=C1COC[C@H]([C@H](O)c2ccc(NC(=O)c3ccc(C(F)(F)F)cc3)cc2)N1: ≤ 4.00
O=C1NCC2(CCN(Cc3ccsc3)CC2)Oc2ccccc21: ≤ 4.00
CN1CCN(CC(O)COc2cccc3[nH]ccc23)c2ccccc21 (centres unmarked): ≤ 4.00
CCc1ccc([S+](=O)([O-])N2CCN(c3ccccc3OC)CC2)cc1: ≤ 4.00
CCN(Cc1cccc(S(=O)(=O)O)c1)c1cccc(C(=C2C=CC(=[N+](CC)Cc3cccc(S(=O)(=O)O)c3)C=C2)c2ccc(O)cc2S(=O)(=O)[O-])c1: 4.55
O=C(O)COc1ccc(-c2nccc3c2C(=O)N(Cc2c[nH]c4ccccc24)CC(COc2cccc(N4CCOCC4)c2)O3)cc1 (centres unmarked): ≤ 4.00
CN(Cc1ccc(CCN)cc1)Cc1ccc2nsnc2c1: ≤ 4.00

Sample 4
Structure (SMILES): Nc1nccc(-c2c(-c3ccc(F)cc3)ncn2C2CCNCC2)n1
Observed: enzyme activity
Mode: inhibitor
Concentration: 0.5 µM
Relative to: control
Quantity: remaining activity
BTK (Homo sapiens, UniProt Q06187): 100%
STK38 (Homo sapiens, UniProt Q15208): 99.8%
MAP3K10 (Homo sapiens, UniProt Q02779): 99.8%
AKT3 (Homo sapiens, UniProt Q9Y243): 92.6%
PRKCD (Homo sapiens, UniProt Q05655): 99.8%
CSNK1A1 (Homo sapiens, UniProt P48729): 2.82%
EPHA5 (Homo sapiens, UniProt P54756): 97.8%
PRKCI (Homo sapiens, UniProt P41743): 98.5%
PLK2 (Homo sapiens, UniProt Q9NYY3): 93%
CSNK2A1 (Homo sapiens, UniProt P68400): 94.7%
MAP2K6 (Homo sapiens, UniProt P52564): 106%
LYN (Homo sapiens, UniProt P07948): 87.5%
NEK4 (Homo sapiens, UniProt P51957): 99.5%
IRAK4 (Homo sapiens, UniProt Q9NWZ3): 123%
Cyclin-dependent kinase 9, with cyclin T1 (CDK9, Homo sapiens, UniProt P50750): 87.1%
CHEK1 (Homo sapiens, UniProt O14757): 99.8%
KIT (Homo sapiens, UniProt P10721): 98.4%
PRKG1 (Homo sapiens, UniProt Q13976): 97.7%
MKNK2 (Homo sapiens, UniProt Q9HBH9): 92.1%
MAP4K2 (Homo sapiens, UniProt Q12851): 102%
LRRK2 (Homo sapiens, UniProt Q5S007): 99.9%

For quick reference, copied from above (sample 3):
O=C1OC2(c3ccc(O)cc3Oc3cc(O)ccc32)c2ccc(N=C=S)cc21: ≤ 4.00
Cc1cc(F)ccc1-c1n[nH]c2ncc(-c3ccsc3)nc12: ≤ 4.00
OC(COc1ccc(CN2CCC(F)CC2)cc1)CN1CCCCC1 (centres unmarked): ≤ 4.00
Cn1cc(-c2cnc(Nc3cccc(C(F)(F)F)c3)c3c2CCO3)cn1: ≤ 4.00
CCc1ccc([S+](=O)([O-])N2CCN(c3ccccc3OC)CC2)cc1: ≤ 4.00
CN(Cc1ccc(CCN)cc1)Cc1ccc2nsnc2c1: ≤ 4.00
O=C1COC[C@H]([C@H](O)c2ccc(NC(=O)c3ccc(C(F)(F)F)cc3)cc2)N1: ≤ 4.00
O=C1NCC2(CCN(Cc3ccsc3)CC2)Oc2ccccc21: ≤ 4.00
